Results of several laboratories.
Lines come from different studies, so protocols differ.
Method: steady-state kinetics
B1: Mj-MAT W387F/Y49W (Methanocaldococcus jannaschii, UniProt Q58605); chain MRNIIVKKLDVEPIEERPTEIVERKGLGHPDSICDGIAESVSRALCKMWMEKFGTILHHNTDQVELVGGHAYPKFGGGVMVSPIYILLSGRATMEILDKEKNEVIKLPVGTTAVKAAKEYLKKVLRNVDVDKDVIIDCRIGQGSMDLVDVFERQKNEVPLANDTSFGVGYAPLSTTERLVLETERFLNSDELKNEIPAVGEDIKVMGLREGKKITLTIAMAVVDRYVKNIEEYKEVIEKVRKKVEDLAKKIADGYEVEIHINTADDYERESVYLTVTGTSAEMGDDGSVGRGNRVNGLITPFRPMSMEAASGKNPVNHVGKIYNILANLIANDIAKLEGVKECYVRILSQIGKPINEPKALDIEIITEDSYDIKDIEPKAKEIANKFLDNIMEVQKMIVEGKVTTF
B2: HGXPRT (Trypanosoma cruzi, UniProt Q4DRC3); chain MISSQQAMVHVVSRNAEGVIVVDGKAYPMAEELVATESVIQRSIKAVAKQIADFYRPLSHRDTHGGGGVAPISDENPLIIISVLKGSYIFTADMVRYLGDYGLPHVVDFLRVASYRGTSSTNKMKLLAETQFKALRGKHVLILEDIVDSGKTLRYILDKVQREHQPATLKVCVLADKPGGRRVTMQPDFVCLTVPNKYVIGYGFEVNDRFRCFRHIFTLRPGEARRYPAHL
B3: PhnY (uncultured bacterium HF130_AEPn_1, UniProt D0E8I4); chain MSYFTQEQKTQWKDNGFVHLKGFLNEALAQDIKDWTQELYEWEEAPGKWMKYFETSSDTGERLLCRVENFIDYHKGIKGFLCGEMIYGMVSELMGEQAVLFKEKINFKYPGGAGFAYHQDAPAFTSFGQKYHITMMVSVDASNEENGCLRMAHGFSEEKTLEQEPDGTVCKKLAAKLDWRPLETGPGDLVLFNSYVPHYSEANTSDRSRRAMFITYNRLSEGEKRLDYFKDKREKFPPEAERIEGKDYSSAESLYNLGNPIK
B4: Paox H64Q (Mus musculus, UniProt Q8C0L6); chain MAFPGPRVLVVGSGIAGLGAAQKLCSHRAAPHLRVLEATASAGGRIRSERCFGGVVELGAHWIQGPSQDNPVFQLAAEFGLLGEKELSEENQLVDTGGHVALPSMIWSSSGTSVSLELMTEMARLFYGLIERTREFLNESETPMASVGEFLKKEISQQVASWTEDDEDTRKRKLAILNTFFNIECCVSGTHSMDLVALAPFGEYTVLPGLDCILAGGYQGLTDRILASLPKDTVAFDKPVKTIHWNGSFQEAAFPGETFPVLVECEDGARLPAHHVIVTVPLGFLKEHQDTFFEPPLPAKKAEAIKKLGFGTNNKIFLEFEEPFWEPDCQFIQVVWEDTSPLQDTALSLQDTWFKKLIGFLVQPSFESSHVLCGFIAGLESEFMETLSDEEVLLSLTQVLRRVTGNPQLPAAKSVRRSQWHSAPYTRGSYSYVAVGSTGDDLDLMAQPLPEDGTGTQLQVLFAGEATHRTFYSTTHGALLSGWREADRLVSLWDSQVEQSRPRL
B5: YdjH (Escherichia coli, UniProt P77493); chain MDNLDVICIGAAIVDIPLQPVSKNIFDVDSYPLERIAMTTGGDAINEATIISRLGHRTALMSRIGKDAAGQFILDHCRKENIDIQSLKQDVSIDTSINVGLVTEDGERTFVTNRNGSLWKLNIDDVDFARFSQAKLLSLASIFNSPLLDGKALTEIFTQAKARQMIICADMIKPRLNETLDDICEALSYVDYLFPNFAEAKLLTGKETLDEIADCFLACGVKTVVIKTGKDGCFIKRGDMTMKVPAVAGITAIDTIGAGDNFASGFIAALLEGKNLRECARFANATAAISVLSVGATTGVKNRKLVEQLLEEYEG
UniProt Q9Y2T3, sequence (whole entry, looked up): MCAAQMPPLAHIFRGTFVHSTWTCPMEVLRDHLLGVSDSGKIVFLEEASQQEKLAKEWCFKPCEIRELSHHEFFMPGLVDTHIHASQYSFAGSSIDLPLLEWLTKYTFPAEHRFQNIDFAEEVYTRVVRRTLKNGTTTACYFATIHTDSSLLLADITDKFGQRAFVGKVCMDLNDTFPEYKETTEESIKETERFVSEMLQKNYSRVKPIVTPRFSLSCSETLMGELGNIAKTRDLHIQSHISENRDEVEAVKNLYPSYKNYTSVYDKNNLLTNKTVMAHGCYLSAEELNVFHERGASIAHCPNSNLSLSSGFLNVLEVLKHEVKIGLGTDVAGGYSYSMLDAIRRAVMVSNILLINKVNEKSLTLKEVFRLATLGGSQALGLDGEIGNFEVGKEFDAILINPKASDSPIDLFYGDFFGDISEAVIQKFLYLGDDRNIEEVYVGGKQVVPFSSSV
UniProt J9VYP5, sequence (whole entry, looked up): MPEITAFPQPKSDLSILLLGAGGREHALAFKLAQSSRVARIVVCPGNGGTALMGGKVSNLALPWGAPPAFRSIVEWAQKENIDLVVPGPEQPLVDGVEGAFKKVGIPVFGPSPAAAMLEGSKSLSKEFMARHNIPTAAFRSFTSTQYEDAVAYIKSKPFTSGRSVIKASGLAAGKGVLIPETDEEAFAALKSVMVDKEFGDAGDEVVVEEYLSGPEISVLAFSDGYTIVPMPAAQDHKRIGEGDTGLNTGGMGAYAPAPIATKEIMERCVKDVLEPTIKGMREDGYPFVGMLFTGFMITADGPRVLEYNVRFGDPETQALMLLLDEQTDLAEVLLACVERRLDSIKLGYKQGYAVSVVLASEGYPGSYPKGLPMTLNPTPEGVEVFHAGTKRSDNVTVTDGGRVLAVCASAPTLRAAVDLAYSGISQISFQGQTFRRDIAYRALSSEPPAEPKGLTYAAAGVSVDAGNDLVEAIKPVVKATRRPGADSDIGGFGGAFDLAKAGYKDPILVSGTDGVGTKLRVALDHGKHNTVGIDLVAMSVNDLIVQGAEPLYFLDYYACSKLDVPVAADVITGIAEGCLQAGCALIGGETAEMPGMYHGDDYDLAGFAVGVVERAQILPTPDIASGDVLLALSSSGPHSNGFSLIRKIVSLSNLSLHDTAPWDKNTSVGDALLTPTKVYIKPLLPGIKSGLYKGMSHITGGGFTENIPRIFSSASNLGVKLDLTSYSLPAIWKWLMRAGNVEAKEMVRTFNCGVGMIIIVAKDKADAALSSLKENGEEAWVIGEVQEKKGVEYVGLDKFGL
UniProt O15439, sequence (whole entry, looked up): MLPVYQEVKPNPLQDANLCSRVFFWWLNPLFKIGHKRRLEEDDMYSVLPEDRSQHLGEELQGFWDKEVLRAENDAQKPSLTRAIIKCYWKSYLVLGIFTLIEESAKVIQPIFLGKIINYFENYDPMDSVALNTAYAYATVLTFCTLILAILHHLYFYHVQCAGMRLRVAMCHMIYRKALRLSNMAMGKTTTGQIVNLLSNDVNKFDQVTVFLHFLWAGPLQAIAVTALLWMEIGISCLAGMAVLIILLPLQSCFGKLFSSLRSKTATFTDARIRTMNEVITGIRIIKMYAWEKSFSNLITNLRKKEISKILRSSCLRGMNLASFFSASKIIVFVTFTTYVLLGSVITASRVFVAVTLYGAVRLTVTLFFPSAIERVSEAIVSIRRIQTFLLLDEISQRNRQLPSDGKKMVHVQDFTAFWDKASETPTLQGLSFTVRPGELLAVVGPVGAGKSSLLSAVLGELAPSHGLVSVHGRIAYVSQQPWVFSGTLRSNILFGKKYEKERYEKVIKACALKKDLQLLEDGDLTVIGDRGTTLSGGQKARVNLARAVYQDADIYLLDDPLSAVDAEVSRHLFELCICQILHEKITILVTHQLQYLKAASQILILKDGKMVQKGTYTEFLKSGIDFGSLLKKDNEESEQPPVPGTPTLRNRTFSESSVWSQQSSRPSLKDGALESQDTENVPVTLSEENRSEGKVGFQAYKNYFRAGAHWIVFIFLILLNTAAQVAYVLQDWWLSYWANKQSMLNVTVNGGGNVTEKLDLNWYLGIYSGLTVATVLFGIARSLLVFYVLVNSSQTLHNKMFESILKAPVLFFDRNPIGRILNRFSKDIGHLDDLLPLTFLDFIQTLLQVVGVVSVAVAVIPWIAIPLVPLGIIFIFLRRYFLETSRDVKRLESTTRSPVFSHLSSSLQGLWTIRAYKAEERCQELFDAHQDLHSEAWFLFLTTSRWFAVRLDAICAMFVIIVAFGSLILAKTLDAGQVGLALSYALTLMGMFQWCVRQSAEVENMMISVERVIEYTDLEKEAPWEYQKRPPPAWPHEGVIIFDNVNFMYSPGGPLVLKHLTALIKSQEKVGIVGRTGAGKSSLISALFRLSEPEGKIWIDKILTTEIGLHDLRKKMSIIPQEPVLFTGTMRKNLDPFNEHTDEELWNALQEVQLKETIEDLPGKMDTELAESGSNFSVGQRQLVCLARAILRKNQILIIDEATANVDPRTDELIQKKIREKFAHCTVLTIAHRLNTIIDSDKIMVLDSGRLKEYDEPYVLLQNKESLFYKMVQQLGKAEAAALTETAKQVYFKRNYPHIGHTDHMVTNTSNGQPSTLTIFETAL

B1 (Mj-MAT W387F/Y49W) — Km (CSCC[C@H](N)C(=O)O; 55 °C, added: ATP 2.5 mM, methionine 0.05-1 mM): 660 µM
ADE5,7 (Cryptococcus neoformans, UniProt J9VYP5) — Km (N[C@@H]1O[C@H](COP(=O)(O)O)[C@@H](O)[C@H]1O; pH 8, 37 °C, apparent): 131 µM
ABCC4 (Homo sapiens, UniProt O15439) — Km (Cc1nc2ccc(CN(C)c3ccc(C(=O)N[C@@H](CCC(=O)O)C(=O)O)s3)cc2c(=O)[nH]1; pH 7.4, 37 °C, not purified, added: ATP 5 mM): 43.7 µM
B2 (HGXPRT) — Km (O=P(O)(O)OC[C@H]1O[C@H](OP(=O)(O)OP(=O)(O)O)[C@H](O)[C@@H]1O; pH 8.3, 37 °C, apparent, added: guanine): 1.1 µM
enzyme (Clostridium autoethanogenum, UniProt A0ABM5NRF0) — Km (NC(=O)C1=CN([C@@H]2O[C@H](COP(=O)(O)OP(=O)(O)OC[C@H]3O[C@@H](n4cnc5c(N)ncnc54)[C@H](OP(=O)(O)O)[C@@H]3O)[C@@H](O)[C@H]2O)C=CC1; pH 7.5, 25 °C, cofactor varied): 1.7 µM
B3 (PhnY) — Km (NCCP(=O)(O)O; apparent, two-enzyme system, added: O2, alpha-ketoglutarate, Fe(II)): 487 µM
GDA (Homo sapiens, UniProt Q9Y2T3) — Km (Nc1nc2csnc2c(=O)[nH]1): 8 µM
B4 (Paox H64Q) — Km (CC(=O)NCCCNCCCCNCCCN; pH 10, 30 °C): 53 µM
enzyme (Vitis vinifera, UniProt F6H697) — Km (O=C(O)Cc1cccc2ccccc12; pH 8.6, 25 °C): 190 µM
Ptb (Listeria monocytogenes, UniProt Q8Y7B7) — Km (CCC(CC)C(=O)SCCNC(=O)CCNC(=O)[C@H](O)C(C)(C)COP(=O)(O)OP(=O)(O)OC[C@H]1O[C@@H](n2cnc3c(N)ncnc32)[C@H](O)[C@@H]1OP(=O)(O)O; pH 7.5, 25 °C, apparent): 43.8 µM
B5 (YdjH) — Km (O=C(O)[C@H](O)[C@@H](O)[C@H](O)[C@H](O)CO; pH 7.4, 30 °C, KCl 100 mM, added: ATP 2.0 mM, MgCl2 5.0 mM): 18 µM

Excerpt of the above:
ABCC4 (Homo sapiens, UniProt O15439) — Km (Cc1nc2ccc(CN(C)c3ccc(C(=O)N[C@@H](CCC(=O)O)C(=O)O)s3)cc2c(=O)[nH]1; pH 7.4, 37 °C, not purified, added: ATP 5 mM): 43.7 µM
